{"data": "Experimental data gathered from unrelated publications", "note": "Each numbered part is a random draw from the data of one study; scales do not carry over between parts. Substitutions count along the parent as printed."}
{"data": "Block 1", "target": "RNA binding protein fox-1 homolog 2, RRM domain, GST-SBP tag (RBFOX2, Homo sapiens, UniProt O43251-10, residues 100-194)", "method": "RNA Bind-n-Seq", "molecule type": "RNA", "matrix": "in vitro", "concentration": "365 nM", "setting": "natural RNA segment, single round, ends assumed", "relative to": "no-protein control", "reading": "higher = stronger binding", "constant ends, left off below": "GGGAGUUCUACAGUCCGACGAUC … UGGAAUUCUCGGGUGCCAA", "Construct (chain)": "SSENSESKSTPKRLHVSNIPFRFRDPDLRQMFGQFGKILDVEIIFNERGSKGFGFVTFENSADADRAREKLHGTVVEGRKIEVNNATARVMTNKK"}
{"Sequence": "AUACAUUAAUUAAUGGCUUCGUUAAUUAAUGUCAUGUUGCUUGUUGCUUUCUCAGUGUGUGUAUGGUCCAUGCCCAGUGCUGGUGACAGGGUGGGUAUCCAUGAUGUGUG", "RBNS enrichment (R)": 0.67}
{"Sequence": "AAACUCAUCCUGUAGAGCAGGCUGGCCUUGAACUCACAGAGCUCCACCUGCCCCUGCCUCUGAUCCAGAGUGCUGGGGUUACAGGUGACCCCAACCAUAACCAGUUCAUU", "RBNS enrichment (R)": 0.241}
{"Sequence": "AAGUGUGUUUUGUCUAUAAAGUGCAAGUGUUUUAAUGUUUAUGUAAAUUAUGCAGGUGAUAACAUGGUUUGGAACUGUUUAUUGGGCUCUUUAACUGAAUUUUCAAAUGA", "RBNS enrichment (R)": 1.13}
{"Sequence": "CUUUGUGACUGUUUGCUAGUGACGCAACUAUUGGUUUUUUGUCAACUGGGCAAUAUGGGUAAAAUUUCCUUUUUUCCCUAAGAAUGAGGUCUUCCAUGUUUGAGGAAAUG", "RBNS enrichment (R)": 1.01}
{"Sequence": "CGCCCGCCAUCGUGCCCAGCUAAUUUUUAUAUUUUUAGUGGAGACAGGGUUUCGGGUUUCACCAUGUUGGCCAGGUUGAUCUUGGACUCCUGACCCCAGGUGAUCCACCU", "RBNS enrichment (R)": 0.288}
{"Sequence": "GCAUAUUGUUUAUAAAGAUACAUUUACAAUUUACUUUUAAUAUUAAAAAUUACCACAUUAUAAAAUUGUUUAUAGUAUUUAAAGAAUGAAUGCAUGUCUCCCAUUCUGCC", "RBNS enrichment (R)": 1.15}
{"Sequence": "UAUGAAAGAUCAUUAAUCAAAGAAUAAGGAAGAAACAAGGUAAAACAGUCCUAAAAUGAUGGAACUAUUUAAAAGGGUGUCAACUCUUAAGAGAACACCUGUGGUUUAAA", "RBNS enrichment (R)": 0.589}
{"Sequence": "AGUUGUACGCCCAGGCAACAAGGGCUGAGCUGCGCUUGCGUGGCUGUUUCAUGACCGCUUGUUUUUCUCCUUUUGGUGUAAUGUUUUACAAAUCCUUUGGCCUGAGAACU", "RBNS enrichment (R)": 0.365}
{"Sequence": "GGGCUCUAGGCAGGCCGACAAGGUUACACCUCCCAGAGCUUGUGAUCUUCAUUUUCUGACAGUCAAAGUGUGAAGGAACCCAGACUUCCCCGAGCCACGGUGUUCAGUCA", "RBNS enrichment (R)": 0.4}
{"Sequence": "CUCGUUUUUCACGCUGGCUUUGUUUCAGAGGUAUACUGACUCCAGUGGUGUCAGGAUGAGGUGGCCCCUGGCUUUCUGGUUCACAACAAGCUAGAGAUUUUCAAAGCUAC", "RBNS enrichment (R)": 0.324}
{"Sequence": "CUCAUCCAGUCCUCUCUUCCUCAGGCCACCCAGGGACAGUUCACAUCUGCAGCCUUCAGAAUGUCCUGUAGGAGUGUCACCAACCCAGGUCCAAGUGUUCAUGCCUGUCC", "RBNS enrichment (R)": 0.563}
{"Sequence": "GAAAAUAUUUCUUUUAUGAUUUUCUUCUCCCACUCCCUGUCCUCCAGUGUUCUGUUAAUAUUAUUUGUAAUUUAGUUUGUAAAUUCAUUAAAAGAAAAUAUUCUCAGCUG", "RBNS enrichment (R)": 0.585}
{"data": "Block 2", "target": "ABI1, truncated, D143A, DHFR fusion (Arabidopsis thaliana)", "method": "DHFR PCA, deep sequencing", "matrix": "yeast", "setting": "methotrexate growth selection, single substitutions", "added": "(+)-ABA 4.8 µM", "relative to": "wild-type fitted maximum", "reading": "higher = stronger binding", "starting sequence": "PYL1, truncated, DHFR fusion (Arabidopsis thaliana); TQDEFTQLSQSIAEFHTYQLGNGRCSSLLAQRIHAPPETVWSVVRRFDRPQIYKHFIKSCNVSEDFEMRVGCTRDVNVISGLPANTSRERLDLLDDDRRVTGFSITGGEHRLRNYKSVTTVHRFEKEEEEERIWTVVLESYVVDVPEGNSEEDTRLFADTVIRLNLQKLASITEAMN"}
{"Substitution": "S150Y", "relative binding score [%]": -11.5}
{"Substitution": "T160C", "relative binding score [%]": 46.1}
{"Substitution": "V136I", "relative binding score [%]": 86}
{"Substitution": "K168G", "relative binding score [%]": 49.6}
{"Substitution": "D95R", "relative binding score [%]": 1.58}
{"Substitution": "D97Y", "relative binding score [%]": 49.1}
{"Substitution": "S150I", "relative binding score [%]": -0.784}
{"Substitution": "K116H", "relative binding score [%]": 50.2}
{"Substitution": "E4M", "relative binding score [%]": 69.4}
{"Substitution": "A175C", "relative binding score [%]": 69.2}
{"Substitution": "S104F", "relative binding score [%]": -2.33}
{"Substitution": "T17F", "relative binding score [%]": 14.3}
{"Substitution": "F47G", "relative binding score [%]": -6.23}
{"data": "Block 3", "target": "Ras GTPase-activating protein-binding protein 1, full length (G3BP1, Homo sapiens, UniProt Q13283)", "method": "RNA Bind-n-Seq", "molecule type": "RNA", "matrix": "in vitro", "concentration": "200 nM", "setting": "whole 134-nt RNA, ends assumed", "added": "150 mM KCl", "relative to": "input library", "reading": "higher = stronger binding", "constant ends, left off below": "GGGAGUUCUACAGUCCGACGAUC … UGGAAUUCUCGGGUGUCAAGG", "sequence of UniProt Q13283 (whole entry, looked up)": "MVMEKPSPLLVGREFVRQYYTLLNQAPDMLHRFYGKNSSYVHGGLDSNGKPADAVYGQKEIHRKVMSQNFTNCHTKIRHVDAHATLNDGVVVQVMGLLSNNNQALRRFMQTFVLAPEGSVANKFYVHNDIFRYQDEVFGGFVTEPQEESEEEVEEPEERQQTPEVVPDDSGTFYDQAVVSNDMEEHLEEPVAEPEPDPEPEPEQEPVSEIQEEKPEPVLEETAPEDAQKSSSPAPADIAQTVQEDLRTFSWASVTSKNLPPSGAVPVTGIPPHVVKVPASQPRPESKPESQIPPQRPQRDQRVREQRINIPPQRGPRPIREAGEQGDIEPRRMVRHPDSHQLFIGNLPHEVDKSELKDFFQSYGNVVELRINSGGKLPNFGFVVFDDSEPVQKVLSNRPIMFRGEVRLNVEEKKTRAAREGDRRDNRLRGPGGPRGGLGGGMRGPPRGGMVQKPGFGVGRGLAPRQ"}
{"Sequence": "AGUCCUGUGCUACACAUCGUAUGUACCGAAUCGGGUUUUUUUGGGAAAAAGGGAGGGAAAGUAUUAUGUUACGCCGUUCGGAUCUGCACU", "log2 enrichment": -0.0219}
{"Sequence": "UGUGCUACACAUCGUAUGUACCGAAUCGGGGAAAAAGGGGUUUUUUUGGGGUUUUUUUGGGGAAAGUAUUAUGUUACGCCGUUCGGAUCU", "log2 enrichment": -0.346}
{"Sequence": "GAAAUCCACAGGAAAGUGAUGUCACAAAACUUCACCAACUGCCACACCAAGAUUCGCCAUGUUGAUGCUCAUGCCACGCUAAAUGAUGGU", "log2 enrichment": 0.236}
{"Sequence": "UCAAGUCCUGUGCUACACAUCGUAUGUACCGAAUCGGGGUUUGGGUUUGGUUUGGAAAGUAUUAUGUUACGCCGUUCGGAUCUGCACUUC", "log2 enrichment": -0.284}
{"Sequence": "UCCUGUGCUACACAUCGUAUGUACCGAAUCGGGGAAAAAAAGGGGUUUGGGGUUUGGGGAAAGUAUUAUGUUACGCCGUUCGGAUCUGCA", "log2 enrichment": 0.834}
{"Sequence": "UGGGAGGUGGAUUUUGUUUAUUUUUUUAGCUCAUUUCCAGGGGUGGCAAUUUUUUUUUAAUAUGUGUCAUGAAUAAAGUUGUUUUUGAAA", "log2 enrichment": 0.164}
{"Sequence": "CCUCAAGUCCUGUGCUACACAUCGUAUGUACCGAAUCGGCCGGGGCCGGCCGGAAAGUAUUAUGUUACGCCGUUCGGAUCUGCACUUCCA", "log2 enrichment": -0.447}
{"Sequence": "UCCUGUGCUACACAUCGUAUGUACCGAAUCGGGGUUUGGGGAAAAAGGGGUUUUUGGGGAAAGUAUUAUGUUACGCCGUUCGGAUCUGCA", "log2 enrichment": 0.696}
{"Sequence": "AAGUCCUGUGCUACACAUCGUAUGUACCGAAUCGGUUUUUGGAAAAAGGUUUUUGGAAAGUAUUAUGUUACGCCGUUCGGAUCUGCACUU", "log2 enrichment": -1.45}
{"Sequence": "CACAGACAACACGCACCCACAAAGACACAGAGGGAAGGGGUUGGGAUGGGGACAGGGUGCACAGCAGGGCGGGGUAGGACCCCAGCCCCU", "log2 enrichment": 1.89}
{"Sequence": "ACCAUGCAGGUGGGCAUCUUUGGGAAGUGGGGCAAGGGGGGGAUAGAGAGGGGGGUAACACUUUGGGAACAGGUGGUCCCAGGUCGUUUC", "log2 enrichment": 0.876}
{"Sequence": "GCAGGAAGUAAAAACAAAGGGAAAUGCUUCGGAUAGUGGCAGGGGUGGGGGUUGCUAAGGAAAGGGUGGGAUGGGAGUGGGUAAAGAGUU", "log2 enrichment": 1.31}
{"Sequence": "UCCUGUGCUACACAUCGUAUGUACCGAAUCGGGUUUUUGGGAAAAAAAGGGUUUUUGGGAAAGUAUUAUGUUACGCCGUUCGGAUCUGCA", "log2 enrichment": -0.552}
{"Sequence": "CUGUGCUACACAUCGUAUGUACCGAAUCGGGGCCCCCCCGGCCCCCCCGGGCCCCCCCGGGGAAAGUAUUAUGUUACGCCGUUCGGAUCU", "log2 enrichment": -1.02}
{"data": "Block 4", "target": "CCND1, cyclin fold, Cln2 fusion (human)", "method": "yeast growth competition, sequencing", "matrix": "yeast", "setting": "weak parent motif", "relative to": "not given", "reading": "higher = stronger binding", "starting sequence": "PKMYT1 docking peptide (human); SFEPRNLLSLFED; partner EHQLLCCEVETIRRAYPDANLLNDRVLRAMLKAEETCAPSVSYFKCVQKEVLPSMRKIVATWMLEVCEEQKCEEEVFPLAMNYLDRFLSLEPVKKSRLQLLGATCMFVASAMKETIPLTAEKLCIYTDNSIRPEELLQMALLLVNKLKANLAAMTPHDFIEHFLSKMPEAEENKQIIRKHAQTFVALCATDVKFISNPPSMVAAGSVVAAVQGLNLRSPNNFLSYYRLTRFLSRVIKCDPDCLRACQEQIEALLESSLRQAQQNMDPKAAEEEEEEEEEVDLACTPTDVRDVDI"}
{"Substitution": "E12Q", "normalised enrichment score": 0.721}
{"Substitution": "L7E", "normalised enrichment score": 0.336}
{"Substitution": "E12W", "normalised enrichment score": 0.921}
{"Substitution": "N6D", "normalised enrichment score": 0.399}
{"Substitution": "F11I", "normalised enrichment score": 1.14}
{"Substitution": "F2D", "normalised enrichment score": 0.884}
{"Substitution": "D13L", "normalised enrichment score": 1.43}
{"Substitution": "S1A", "normalised enrichment score": -0.0121}
{"Substitution": "F11M", "normalised enrichment score": 0.914}
{"Substitution": "D13P", "normalised enrichment score": 0.824}
{"Substitution": "E12F", "normalised enrichment score": 0.886}
{"Substitution": "L7R", "normalised enrichment score": 0.92}
{"Substitution": "L10W", "normalised enrichment score": 2.19}
{"Substitution": "S9E", "normalised enrichment score": 1.21}
{"data": "Block 5", "target": "Sal-like protein 4, full length isoform B (SALL4, Homo sapiens, UniProt Q9UJQ4-2, residues 1-616)", "method": "universal PBM", "molecule type": "double-stranded DNA, one strand shown", "matrix": "in vitro", "concentration": "not given", "setting": "8-mer, flanks averaged, mean of replicates", "reading": "higher = stronger binding"}
{"Sequence": "CCGCCACG", "E-score": -0.138}
{"Sequence": "CTCCGTTC", "E-score": -0.129}
{"Sequence": "CGCTCCCA", "E-score": -0.196}
{"Sequence": "TGTCGAAA", "E-score": 0.153}
{"Sequence": "AGCGGTAA", "E-score": 0.00351}
{"Sequence": "GCACGTCA", "E-score": -0.0467}
{"Sequence": "ATAGACTA", "E-score": 0.186}
{"Sequence": "AACATGAC", "E-score": 0.0302}
{"Sequence": "CTAGCTCA", "E-score": -0.151}
{"Sequence": "GGAGTGAA", "E-score": 0.0109}
{"Sequence": "AAAGCATT", "E-score": 0.221}
{"Sequence": "AGAGAGTA", "E-score": -0.00141}
{"Sequence": "GTCATGCA", "E-score": 0.0413}
{"Sequence": "ATAGTGGC", "E-score": 0.0242}
{"Sequence": "AGATCCGA", "E-score": -0.123}
{"Sequence": "CTTCAATC", "E-score": 0.00934}
{"Sequence": "CGCTTTGC", "E-score": -0.00067}
{"Sequence": "GGTGCTAA", "E-score": 0.00262}
{"Sequence": "ATACGGAG", "E-score": 0.0346}
{"Sequence": "ATCACGTC", "E-score": -0.00341}
{"Sequence": "GCCCGAAA", "E-score": -0.0932}
{"Sequence": "CGGTTCAC", "E-score": -0.263}
{"Sequence": "AGACCCAT", "E-score": -0.0849}
{"Sequence": "ATAGGACG", "E-score": 0.0299}
{"Sequence": "GATCTCTA", "E-score": 0.0247}
{"data": "Further values, each from its own experiment"}
{"Molecule": "PhoQ, residues 284 288 289 292 302 303 TASMAF", "target": "PhoP, residues 12 14 15 18 19 QWHVF (Escherichia coli, UniProt P23836)", "assay": "Sort-seq, measured: YFP reporter", "system": "E. coli", "setting": "PhoQ-PhoP variant library, added: 10 µM Mg2+", "how to read": "relative to: high Mg2+ state, higher = stronger signaling", "quantity": "fold induction", "result": 12.1}
{"note": "A few entries again (block 4):"}
{"Substitution": "E12W", "normalised enrichment score": 0.921}
{"Substitution": "F11M", "normalised enrichment score": 0.914}
{"Substitution": "D13P", "normalised enrichment score": 0.824}
{"Substitution": "D13L", "normalised enrichment score": 1.43}
{"Substitution": "F11I", "normalised enrichment score": 1.14}
{"Substitution": "E12F", "normalised enrichment score": 0.886}
{"Substitution": "L7E", "normalised enrichment score": 0.336}
{"Substitution": "F2D", "normalised enrichment score": 0.884}
